Results collected from several papers.
Protocols differ between the studies behind these lines. Values joined by “and” are separate records of one study, mostly repeats; a detail may differ. ± marks the error that the study gave.

Structure (SMILES)	target	assay	test system	conditions	how to read	measurement	result
Cc1ccc(N2CC3CCC(C2)N3C)cc1C(=O)N[C@H](C)c1cc(-c2cnn(C)c2)nc2ccccc12	trypsin	enzyme activity		concentration not given		remaining activity	100% and 102% and 101% and 103%
Cn1ccc2cc(-n3c(=O)[nH]c4sc5c(c4c3=O)CCCC5)ccc21	rat NMDA receptor	radioligand binding		10 µM, phencyclidine site		inhibition	-2%
CC(C)C[C@H](NC(=O)[C@H](CC(=O)O)NC(=O)[C@@H](NC(=O)[C@H](CCC(=O)O)NC(=O)[C@H](CCCCN)NC(=O)[C@H](Cc1ccc(O)cc1)NC(=O)[C@H](CCCCN)NC(=O)[C@H](Cc1c[nH]cn1)NC(=O)CNC(=O)CN)[C@@H](C)O)C(N)=O	HCV IRES RNA	MALDI-TOF mass spectrometry, item: 2',3'-cyclic phosphate products	hepatitis C virus			initial cleavage rate	4.3 ± 0.5 %/min
Nc1ncc(-c2cc(-c3cnn(CC(F)(F)F)c3)ncc2F)nc1C(=O)NC1CNCC(F)C1 (stereo not drawn)	ABL1(H396P)-nonphosphorylated	KINOMEscan competition binding		1 µM	reference: DMSO control	remaining binding	94%
Cc1cc(O)cc(C)c1C[C@H](N)C(=O)N[C@H](CCCNC(=N)N)C(=O)N[C@@H](Cc1ccccc1)C(=O)N[C@@H](CCCCN)C(=O)NNC(=O)[C@H](Cc1ccccc1)NC(=O)[C@H](CC1CCCCC1)NC[C@@H]1Cc2ccccc2CN1C(=O)[C@@H](N)Cc1ccc(O)cc1	delta opioid receptor (mouse)	antagonist	mouse vas deferens	together with: DPDPE		Ke	11.2 ± 0.3 nM
COc1ccccc1-c1n[nH]c2nc(N[C@H]3CC[C@H](NS(=O)(=O)CC(C)C)CC3)ncc12	Leishmania donovani histone H1-like (LINJ.27.1511)	bead binding competition	Leishmania donovani extract	10 µM	reference: vehicle	relative abundance	0.36
Cc1cc(O)cc(C)c1C[C@H](N)C(=O)N[C@H](CCCNC(=N)N)C(=O)N[C@@H](Cc1ccccc1)C(=O)N[C@@H](CCCCN)C(=O)NCCCCCCNC(=O)[C@H](Cc1ccccc1)NC(=O)[C@H](CC1CCCCC1)NC[C@@H]1Cc2ccccc2CN1C(=O)[C@@H](N)Cc1ccc(O)cc1	delta opioid receptor (mouse)	antagonist	mouse vas deferens	together with: DPDPE		Ke	5.89 ± 0.71 nM
CC[C@H](C)[C@H](NC(=O)[C@H](CC(C)C)NC(=O)[C@H](CC(C)C)NC(=O)[C@H](CC(=O)O)NC(=O)[C@@H](NC(=O)[C@H](CCC(=O)O)NC(=O)[C@H](CCCCN)NC(=O)[C@H](Cc1ccc(O)cc1)NC(=O)[C@H](CCCCN)NC(=O)[C@H](Cc1c[nH]cn1)NC(=O)CNC(=O)CN)[C@@H](C)O)C(=O)N[C@@H](CC(C)C)C(=O)N[C@@H](Cc1ccccc1)C(=O)N[C@@H](CCCCN)C(=O)N[C@@H](CC(=O)O)C(=O)N[C@@H](CC(=O)O)C(=O)N[C@@H](Cc1ccc(O)cc1)C(=O)N[C@@H](Cc1ccccc1)C(=O)N[C@@H](C)C(=O)N[C@@H](CCCCN)C(=O)N[C@@H](CCCCN)C(=O)N[C@@H](CC(N)=O)C(=O)N[C@@H](CCC(=O)O)C(=O)N[C@@H](CCC(=O)O)C(=O)N[C@@H](CCCNC(=N)N)C(=O)N[C@@H](CCCCN)C(N)=O	HCV IRES RNA	RNA cleavage, gel electrophoresis	hepatitis C virus	10 µM, together with: co-reagents 1 mM, fluorescein-labelled HCV RNA 10 µM		initial rate	349 ± 93 nM/min
Cc1ccc2c(n1)c(-c1cccc(S(C)(=O)=O)c1)c(C)n2C/C(F)=C/CN	androgen receptor (human)	radioligand binding		10 µM, together with: testosterone		inhibition	-4%
CC[C@@H]1CN2CCc3c([nH]c4cccc(OC)c34)[C@@H]2C[C@@H]1/C(=C\OC)C(=O)OC	rabbit anti-mitragynine polyclonal IgG	antigen binding, competitor, competitive indirect ELISA	5% methanol	60 min antibody-standard, 90 min antibody-antigen incubation		IC50	1 µg/mL and 0.96 µg/mL
CNC(=O)C[C@H](Cc1ccc(F)cc1)NC(=O)[C@@H](Cc1ccc(Cl)cc1Cl)NC(=O)[C@H](N)Cc1ccccc1C#N	human protease panel	enzyme activity, inhibitor		off-target		IC50	> 10 µM
O=P(O)(O)Oc1c2c(c(OP(=O)(O)O)c3c1C1CC3c3cc4ccccc4cc31)C1CC2c2cc3ccccc3cc21	DOPC	1H NMR titration	methanol-d4	CH2-N(Me)3 signal		association constant	80 ± 6 M⁻¹

For quick reference, copied from above:
Structure (SMILES)	target	assay	test system	conditions	how to read	measurement	result
Cc1ccc(N2CC3CCC(C2)N3C)cc1C(=O)N[C@H](C)c1cc(-c2cnn(C)c2)nc2ccccc12	trypsin	enzyme activity		concentration not given		remaining activity	100% and 102% and 101% and 103%
